Measurements gathered from unrelated publications.
Protocols differ between the studies behind these lines. Numbers after ± are the reported error.
Cell line: HCT-116

For `COc1cc(CCC[P+](c2ccccc2)(c2ccccc2)c2ccccc2)c(OC)c2c1OCO2.[I-]`, the TGI was -4.79 log M (SRB).
For `O=c1c2ccccc2nc(S)n1-c1ccccc1`, the IC50 was 1450 ± 22.2 µM (cytotoxicity, LDH release; 24 h, 50% viability reduction).
With `CCN(CC)c1ccc(C=NNC(=O)CSc2nc3ccccc3c(=O)n2Cc2ccc(S(N)(=O)=O)cc2)c(O)c1` the CC50 was over 100 µM (NCI five-dose screen).
For `COc1c(CCC[P+](c2ccccc2)(c2ccccc2)c2ccccc2)cc2c(c1OC)OCO2.[I-]`, the GI50 was -5.92 log M (SRB).
With `CN1CCN(C2(CNC3CCN(c4cccc(-c5cc6cc(F)ccc6[nH]5)c4)CC3)CCC2)CC1` the GI50 was 1.19 µM.
With `Nc1nc2nc[nH]c2c(=S)[nH]1` the surviving fraction was 0.985 (clonogenic; 0.3125 µM, 10 days).
The IC50 of `COc1c(C)c2c(c(O)c1C/C=C(\C)CCC(=O)O)C(=O)OC2` is reported as 0.562 µM (cell proliferation; colon cancer).
With `O=C1CCP(=S)(c2ccccc2)CC1` the inhibition was 71.8 to 96.8% (ELISA, measured: IL-6 secretion; IC50 concentration).
For `O=C1Nc2c(C(F)(F)F)cccc2[C@@]1(c1ccc(O)cc1)c1ccc(OC(F)(F)F)cc1`, “maximal cell death” read about 38% (cell viability, Alamar blue; dose-response curve bottom).
The maximal inhibition of `COc1ccc(NC(=O)Nc2ccc3c(c2)C=CCP(=O)(O)O3)cc1` is reported as 40% (cell proliferation, MTT; 100 µM, 72 h, normoxia).
With `S=P1(c2ccccc2)CCCCC1` the selectivity index was 1 (MTT; 72 h; relative to: IC50 HaCaT over IC50 HCT-116).

Some of these lines once more:
For `O=C1Nc2c(C(F)(F)F)cccc2[C@@]1(c1ccc(O)cc1)c1ccc(OC(F)(F)F)cc1`, “maximal cell death” read about 38% (cell viability, Alamar blue; dose-response curve bottom).
